# Assay results from different studies.
# Each numbered part is a random draw from the data of one study; scales do not carry over between parts.
# UniProt Q9H422, sequence (whole entry, looked up): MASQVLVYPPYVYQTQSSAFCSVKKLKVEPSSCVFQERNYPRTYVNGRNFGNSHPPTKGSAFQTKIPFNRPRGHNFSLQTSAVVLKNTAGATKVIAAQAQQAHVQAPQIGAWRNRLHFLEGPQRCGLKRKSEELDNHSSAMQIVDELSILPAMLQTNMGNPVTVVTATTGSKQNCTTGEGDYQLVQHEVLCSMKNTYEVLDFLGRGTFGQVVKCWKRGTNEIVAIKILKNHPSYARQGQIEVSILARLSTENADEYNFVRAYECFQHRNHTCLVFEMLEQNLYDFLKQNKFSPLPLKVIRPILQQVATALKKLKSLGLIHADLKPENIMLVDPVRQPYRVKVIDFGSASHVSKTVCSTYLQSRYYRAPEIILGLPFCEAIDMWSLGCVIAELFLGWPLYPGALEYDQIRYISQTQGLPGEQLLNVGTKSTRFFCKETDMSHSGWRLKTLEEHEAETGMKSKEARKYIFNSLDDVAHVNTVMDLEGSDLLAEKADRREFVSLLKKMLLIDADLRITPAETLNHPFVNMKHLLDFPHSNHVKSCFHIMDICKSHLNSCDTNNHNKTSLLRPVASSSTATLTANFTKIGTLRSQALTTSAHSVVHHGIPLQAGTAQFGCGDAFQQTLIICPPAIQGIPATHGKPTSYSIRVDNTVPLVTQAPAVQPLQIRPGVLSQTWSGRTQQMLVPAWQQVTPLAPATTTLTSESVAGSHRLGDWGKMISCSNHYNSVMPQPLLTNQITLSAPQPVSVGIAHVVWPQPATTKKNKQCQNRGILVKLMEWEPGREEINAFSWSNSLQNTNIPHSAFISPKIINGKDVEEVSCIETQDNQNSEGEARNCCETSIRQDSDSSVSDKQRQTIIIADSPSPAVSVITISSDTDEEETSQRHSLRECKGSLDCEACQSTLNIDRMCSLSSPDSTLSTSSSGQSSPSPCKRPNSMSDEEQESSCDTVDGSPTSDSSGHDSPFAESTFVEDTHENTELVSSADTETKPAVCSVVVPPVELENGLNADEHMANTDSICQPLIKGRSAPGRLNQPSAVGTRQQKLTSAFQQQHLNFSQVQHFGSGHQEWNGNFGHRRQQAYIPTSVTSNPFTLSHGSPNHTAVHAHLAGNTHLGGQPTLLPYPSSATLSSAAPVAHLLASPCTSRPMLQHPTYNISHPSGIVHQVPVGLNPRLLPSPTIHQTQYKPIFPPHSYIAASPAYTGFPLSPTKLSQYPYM
# UniProt Q16566, sequence (whole entry, looked up): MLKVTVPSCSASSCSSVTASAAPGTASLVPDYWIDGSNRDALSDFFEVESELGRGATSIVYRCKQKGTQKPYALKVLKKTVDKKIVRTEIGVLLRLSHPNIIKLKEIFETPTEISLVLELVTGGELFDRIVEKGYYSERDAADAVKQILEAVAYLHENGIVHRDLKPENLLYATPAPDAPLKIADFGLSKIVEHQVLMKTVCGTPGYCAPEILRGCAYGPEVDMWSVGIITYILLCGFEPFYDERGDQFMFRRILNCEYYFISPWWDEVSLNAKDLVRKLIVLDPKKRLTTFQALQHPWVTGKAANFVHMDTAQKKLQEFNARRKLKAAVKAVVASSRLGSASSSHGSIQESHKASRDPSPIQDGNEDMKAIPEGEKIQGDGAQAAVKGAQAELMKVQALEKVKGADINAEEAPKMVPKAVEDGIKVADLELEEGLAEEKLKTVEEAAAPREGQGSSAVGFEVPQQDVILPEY
# UniProt Q8IW41, sequence (whole entry, looked up): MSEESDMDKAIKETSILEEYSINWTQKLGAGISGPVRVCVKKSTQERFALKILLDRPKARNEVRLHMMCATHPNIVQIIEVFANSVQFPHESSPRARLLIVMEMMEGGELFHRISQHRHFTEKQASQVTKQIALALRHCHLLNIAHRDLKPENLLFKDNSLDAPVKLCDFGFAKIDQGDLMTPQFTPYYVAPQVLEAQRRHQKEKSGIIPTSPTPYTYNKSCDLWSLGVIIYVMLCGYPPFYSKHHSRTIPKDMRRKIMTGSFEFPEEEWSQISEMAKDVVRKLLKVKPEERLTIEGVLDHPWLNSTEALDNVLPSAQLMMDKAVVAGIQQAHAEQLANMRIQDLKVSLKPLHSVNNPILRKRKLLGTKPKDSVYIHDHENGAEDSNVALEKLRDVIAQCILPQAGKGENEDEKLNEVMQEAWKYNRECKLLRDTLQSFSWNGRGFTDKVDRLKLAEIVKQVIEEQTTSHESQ
# UniProt Q16832, sequence (whole entry, looked up): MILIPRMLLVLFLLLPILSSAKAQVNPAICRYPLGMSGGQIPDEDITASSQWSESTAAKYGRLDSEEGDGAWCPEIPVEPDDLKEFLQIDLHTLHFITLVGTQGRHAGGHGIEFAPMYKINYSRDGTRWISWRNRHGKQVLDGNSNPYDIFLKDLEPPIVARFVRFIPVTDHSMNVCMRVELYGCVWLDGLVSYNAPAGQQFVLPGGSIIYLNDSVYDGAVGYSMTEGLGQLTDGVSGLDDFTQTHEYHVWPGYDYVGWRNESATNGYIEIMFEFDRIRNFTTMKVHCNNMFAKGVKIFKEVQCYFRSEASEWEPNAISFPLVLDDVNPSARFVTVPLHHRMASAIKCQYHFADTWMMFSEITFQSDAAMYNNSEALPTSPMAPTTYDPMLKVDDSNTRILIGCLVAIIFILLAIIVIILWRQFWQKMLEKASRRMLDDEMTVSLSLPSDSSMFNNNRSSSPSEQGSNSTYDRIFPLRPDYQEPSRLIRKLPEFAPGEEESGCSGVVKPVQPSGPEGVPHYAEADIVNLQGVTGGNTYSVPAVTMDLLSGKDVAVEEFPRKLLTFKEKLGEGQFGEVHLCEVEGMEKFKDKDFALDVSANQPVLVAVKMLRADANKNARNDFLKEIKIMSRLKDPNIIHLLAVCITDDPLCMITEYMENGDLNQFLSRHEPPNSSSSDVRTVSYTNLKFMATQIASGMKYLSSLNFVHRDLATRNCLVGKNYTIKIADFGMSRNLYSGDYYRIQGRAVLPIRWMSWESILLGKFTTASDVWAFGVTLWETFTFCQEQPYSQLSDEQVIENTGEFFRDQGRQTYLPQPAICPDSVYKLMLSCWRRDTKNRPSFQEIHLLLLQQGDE
# UniProt Q96Q40, sequence (whole entry, looked up): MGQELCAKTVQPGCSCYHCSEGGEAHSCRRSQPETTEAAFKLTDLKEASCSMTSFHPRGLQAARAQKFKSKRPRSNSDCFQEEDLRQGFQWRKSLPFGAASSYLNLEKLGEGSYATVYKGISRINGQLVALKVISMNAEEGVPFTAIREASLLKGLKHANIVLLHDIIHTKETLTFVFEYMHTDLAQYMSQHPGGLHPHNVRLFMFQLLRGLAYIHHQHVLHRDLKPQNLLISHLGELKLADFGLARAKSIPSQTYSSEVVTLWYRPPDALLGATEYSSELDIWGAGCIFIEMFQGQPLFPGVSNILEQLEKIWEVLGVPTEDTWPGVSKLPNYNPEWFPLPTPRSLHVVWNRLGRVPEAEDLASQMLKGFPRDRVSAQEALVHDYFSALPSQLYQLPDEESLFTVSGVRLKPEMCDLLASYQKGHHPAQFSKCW

# Sample 1 — technique: RNA Bind-n-Seq; molecule type: RNA; medium: in vitro; concentration: 1 µM; notes: whole 134-nt RNA, ends assumed; with: 150 mM KCl; relative to: input library; direction: higher = stronger binding
# Target: Ras GTPase-activating protein-binding protein 1, RRM domain (G3BP1, Homo sapiens, UniProt Q13283)
# UniProt Q13283, sequence (whole entry, looked up): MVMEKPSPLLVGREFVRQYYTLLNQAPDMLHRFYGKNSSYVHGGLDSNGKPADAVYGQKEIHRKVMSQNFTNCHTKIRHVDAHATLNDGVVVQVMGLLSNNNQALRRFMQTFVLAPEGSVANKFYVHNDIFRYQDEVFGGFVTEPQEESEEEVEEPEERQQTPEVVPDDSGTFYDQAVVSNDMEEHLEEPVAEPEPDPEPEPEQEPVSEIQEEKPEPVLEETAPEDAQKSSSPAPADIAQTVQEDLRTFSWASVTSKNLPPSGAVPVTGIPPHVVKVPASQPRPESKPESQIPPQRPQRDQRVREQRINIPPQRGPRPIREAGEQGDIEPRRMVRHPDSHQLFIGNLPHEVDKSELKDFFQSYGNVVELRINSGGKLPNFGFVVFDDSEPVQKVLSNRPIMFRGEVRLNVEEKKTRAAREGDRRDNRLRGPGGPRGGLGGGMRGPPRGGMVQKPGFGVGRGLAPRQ
Strand,log2 enrichment
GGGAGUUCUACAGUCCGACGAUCUAACUUUAGAGGAGGAUCUGAUGGAUAUGGCAGUGGACGUUGAUUUGGGGAUGGCUAUAAUGGGUAUGGAGGAGGACCUGGAGGUGGCAAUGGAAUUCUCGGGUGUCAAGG,-0.241
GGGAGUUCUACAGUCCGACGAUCGGUGGACUAUGGUGCAACAGCAGAAGAGCUGGAAGCUCACUUUCAUGGCUGUGGUUCAGUCAACCGUGUUACCAUACUGUGUGACAAAUUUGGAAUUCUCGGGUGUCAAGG,-0.193
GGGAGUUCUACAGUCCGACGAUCGUCCUGUGCUACACAUCGUAUGUACCGAAUCGGGUUUUUGGGUUUUUGGGGUUUUUGGGAAAGUAUUAUGUUACGCCGUUCGGAUCUGCAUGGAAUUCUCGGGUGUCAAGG,0.147
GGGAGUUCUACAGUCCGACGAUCGUCCUGUGCUACACAUCGUAUGUACCGAAUCGGUUUUUUGGGGUUUUUUGGUUUUUUGGAAAGUAUUAUGUUACGCCGUUCGGAUCUGCAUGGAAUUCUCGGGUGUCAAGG,-0.207
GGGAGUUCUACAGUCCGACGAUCCCUGUGCUACACAUCGUAUGUACCGAAUCGGGCCCCCCCGGGCCCCCCCGGCCCCCCCGGAAAGUAUUAUGUUACGCCGUUCGGAUCUGCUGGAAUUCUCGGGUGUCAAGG,-0.592
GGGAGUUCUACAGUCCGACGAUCUGGGAGGUGGAUUAUGUUUAUUUUUUUAGCUCAUUUCCAGGGGUGGGAAUUUUUUUUUAAUAUGUGUCAUGAAUAAAGUUGUUUUUGAAAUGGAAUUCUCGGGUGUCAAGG,1.45
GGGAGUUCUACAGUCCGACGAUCGCAGGAAGUAAAAACAAAUGGAAAUGCUUCGGAUAGUGGCAGGGAUGGGGGUUGCUAAGGAAAGGGUGGGAUGGGAGUGGGUAAAGAGUUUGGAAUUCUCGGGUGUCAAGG,0.962
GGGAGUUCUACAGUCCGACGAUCUCAAGUCCUGUGCUACACAUCGUAUGUACCGAAUCGGGAAAGGGUUUGGGAGGGAAAGUAUUAUGUUACGCCGUUCGGAUCUGCACUUCCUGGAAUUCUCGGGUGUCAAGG,0.845

# Sample 2 — observed: cell-free assay; technique: competition with immobilised ligand; concentration: 1 µM
# SMILES: CCOCCn1cc(C(=O)Nc2ccc(-n3nc(-c4cccnc4)cc3C(F)(F)F)cn2)ccc1=O
target,remaining binding [%]
"MAP kinase-activated protein kinase 5 (MAPKAPK5, Homo sapiens, UniProt Q8IW41)",87
"Discoidin domain-containing receptor 2 (DDR2, Homo sapiens, UniProt Q16832)",100
"Cyclin-dependent kinase 15 (CDK15, Homo sapiens, UniProt Q96Q40)",100
"Calcium/calmodulin-dependent protein kinase type IV (CAMK4, Homo sapiens, UniProt Q16566)",100
"Homeodomain-interacting protein kinase 3 (HIPK3, Homo sapiens, UniProt Q9H422)",76

# Sample 3 — technique: RNA Bind-n-Seq; molecule type: RNA; medium: in vitro; concentration: 20 nM; notes: 6-mer, flanks averaged, single round; with: 150 mM KCl; relative to: input library; direction: higher = stronger binding
# Target: TAR DNA-binding protein 43, full length, His tag (TARDBP, Homo sapiens, UniProt Q13148, residues 1-414)
Strand,6-mer enrichment (R)
CCUGAG,0.865
AAUCUU,0.587
GUAUUA,0.65
UCAGGC,0.828
CGCAUA,0.656
UUUCGU,0.593
UGUACA,0.66
GGUUCU,0.777

# Sample 4 — observed: enzyme activity; action: inhibitor; concentration: 0.5 µM; relative to: control
# Target: RAC-gamma serine/threonine-protein kinase (AKT3, Homo sapiens, UniProt Q9Y243)
# UniProt Q9Y243, sequence (whole entry, looked up): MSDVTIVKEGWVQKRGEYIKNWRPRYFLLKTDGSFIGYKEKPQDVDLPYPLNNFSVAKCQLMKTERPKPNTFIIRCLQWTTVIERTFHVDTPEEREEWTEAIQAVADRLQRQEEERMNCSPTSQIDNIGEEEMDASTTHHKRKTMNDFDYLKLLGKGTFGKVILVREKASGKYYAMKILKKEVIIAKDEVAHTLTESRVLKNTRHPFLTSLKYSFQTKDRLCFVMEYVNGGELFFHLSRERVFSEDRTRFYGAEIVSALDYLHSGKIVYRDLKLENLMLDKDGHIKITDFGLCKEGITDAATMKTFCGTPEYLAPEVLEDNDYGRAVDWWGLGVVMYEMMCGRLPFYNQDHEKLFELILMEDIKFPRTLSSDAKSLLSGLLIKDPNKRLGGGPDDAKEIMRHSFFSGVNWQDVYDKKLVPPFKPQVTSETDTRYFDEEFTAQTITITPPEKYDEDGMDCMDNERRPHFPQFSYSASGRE
Structure (SMILES),remaining activity
COc1cc2ncnc(Nc3cccc(Cl)c3)c2cc1OC,98.3%
CN([C@@H](Cc1ccc(OS(=O)(=O)c2cccc3cnccc23)cc1)C(=O)N1CCN(c2ccccc2)CC1)S(=O)(=O)c1cccc2cnccc12,104%
N#Cc1c(NC(=O)c2cccc3ccccc23)sc2c1CCCC2,99.6%
COc1cc2c(cc1OC)-c1[nH]nc(Nc3cccc(F)c3)c1C2,96.1%
Nc1cccc(-c2cc3c(Oc4cccc(O)c4)ncnc3[nH]2)c1,96.2%
Cc1cn(-c2cc(NC(=O)c3ccc(C)c(Nc4nccc(-c5cccnc5)n4)c3)cc(C(F)(F)F)c2)cn1,74.8%
O=c1cc(-c2cccc3c2Sc2ccccc2S3)oc(N2CCOCC2)c1,109%
N#C/C(=C\c1ccc(O)c(O)c1)C(=O)NCc1ccccc1,90.8%
Cn1nc2c3c(cccc31)C(=O)c1ccccc1-2,102%
CCN(CC)C(=O)c1ccc(Nc2nc(OCC3CCCCC3)c3[nH]cnc3n2)cc1,101%
c1ccc(-c2[nH]ncc2-c2ccnc3ccccc23)nc1,92.6%

# Some of these lines once more (sample 4):
Structure (SMILES),remaining activity
CN([C@@H](Cc1ccc(OS(=O)(=O)c2cccc3cnccc23)cc1)C(=O)N1CCN(c2ccccc2)CC1)S(=O)(=O)c1cccc2cnccc12,104%
N#Cc1c(NC(=O)c2cccc3ccccc23)sc2c1CCCC2,99.6%
Cc1cn(-c2cc(NC(=O)c3ccc(C)c(Nc4nccc(-c5cccnc5)n4)c3)cc(C(F)(F)F)c2)cn1,74.8%
COc1cc2ncnc(Nc3cccc(Cl)c3)c2cc1OC,98.3%
